Measured values collected from several papers.
Every numbered part comes from another study and shows a few of its results, in no order.

Series 1 — technique: competition protein-binding microarray; molecule type: double-stranded DNA, one strand shown; sample: in vitro; tested at: 2 µM; with: Pho4 competitor, 0.05 µM; reading: higher = stronger binding; all sequences stand within: … GTCTTGATTCGCTTGACGCTGCTG
Target: Centromere-binding protein 1, full length, His-tagged (CBF1, Saccharomyces cerevisiae, UniProt P17106, residues 1-351)
UniProt P17106, sequence (whole entry, looked up): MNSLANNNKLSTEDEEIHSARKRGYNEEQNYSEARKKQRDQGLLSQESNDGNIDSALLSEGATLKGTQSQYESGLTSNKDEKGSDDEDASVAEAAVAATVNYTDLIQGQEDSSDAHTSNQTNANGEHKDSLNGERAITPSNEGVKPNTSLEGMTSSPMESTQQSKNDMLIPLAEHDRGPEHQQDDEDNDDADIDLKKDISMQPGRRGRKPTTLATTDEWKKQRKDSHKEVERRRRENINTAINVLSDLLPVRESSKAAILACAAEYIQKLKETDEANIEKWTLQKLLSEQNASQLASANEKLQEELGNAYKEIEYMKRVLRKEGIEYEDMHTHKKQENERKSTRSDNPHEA
Setting: whole 60-bp probe, lowest competitor level
Oligonucleotide | fluorescence intensity [a.u.]
CTTGGTTACAGGTATCATGTGTGAAACTGTTTGCGG | 165
AAAGCGGTAATTTGGCTCGTGGGTGCAGATATCTAT | 81.3
TGGCGCTTGACTCCACTCGTGAGTCTTGTTTGGACT | 72.5
GACAACGACTTTGCAGACGTGCCGATTCCACCCATC | 71.6
CGTCCTAGTGATTGTCACCCCACTTCCATGAGGAAG | 82
GTCATCCTCGTCGTTCACGGGTTTAATTTGAATCCT | 165
ATAGTTTGAACCGGTCCCGTGTGTTAGTGGTAGGAC | 231
CGCTGGAAAACCGCCCACGTGGGAAGAAGCCCTGGC | 718
CGTCCTAGTGATTGTCACAGGACTTCCATGAGGAAG | 113
CGTCCTAGCGATTGATGAGTGGGTGCCATGAGGAAG | 84.1
CGGGGTTAAGTTTGTTAAGTGGGTGGCTTGCAGCAG | 73.5
TGCAGGGAGAGGTCACACGAGGACGCAGGGATGCTG | 102
GTCTTGTCTCATTGACCAGTGGGTGTCCCCACTTCA | 67.1
CGGGGTTAAGTTTGGATCGTGGGTGGCTTGCAGCAG | 78.5
CCGACGAAACCGTTCCACGTGTGTTCGACTTGAAAA | 469
AAATTACTAAGTTTTCACGTGTTCTACCCCGTATGA | 1520
TGCGCAACAACTTGGGCCGTGGGTGTATGTCTAGAA | 53.6
GTCTTGTCTCATTGTCACACAACTTTCCCCACTTCA | 84.8
AAAGCGGTAATTTGGTACGTGGGTGCAGATATCTAT | 73.9

Series 2 — technique: RNA Bind-n-Seq; molecule type: RNA; sample: in vitro; tested at: 1 µM; setting: whole 134-nt RNA, ends assumed; with: 150 mM KCl; baseline: input library; reading: higher = stronger binding
Target: Ras GTPase-activating protein-binding protein 1, C-terminal RGG region (G3BP1, Homo sapiens, UniProt Q13283)
UniProt Q13283, sequence (whole entry, looked up): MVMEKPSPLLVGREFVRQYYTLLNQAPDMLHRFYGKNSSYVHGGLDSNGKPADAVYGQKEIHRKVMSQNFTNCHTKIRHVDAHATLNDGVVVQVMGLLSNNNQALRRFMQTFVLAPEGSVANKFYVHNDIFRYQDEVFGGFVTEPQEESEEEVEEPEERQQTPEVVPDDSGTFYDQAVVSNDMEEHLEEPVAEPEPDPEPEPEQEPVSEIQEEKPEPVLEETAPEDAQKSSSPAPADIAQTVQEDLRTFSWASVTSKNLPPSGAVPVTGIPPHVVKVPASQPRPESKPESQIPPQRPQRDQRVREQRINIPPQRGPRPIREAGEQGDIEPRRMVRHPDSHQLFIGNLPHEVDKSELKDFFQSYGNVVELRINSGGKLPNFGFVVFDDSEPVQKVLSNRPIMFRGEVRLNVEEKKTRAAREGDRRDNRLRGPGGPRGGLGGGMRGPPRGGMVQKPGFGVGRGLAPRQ
All sequences stand within: GGGAGUUCUACAGUCCGACGAUC … UGGAAUUCUCGGGUGUCAAGG
Oligonucleotide | log2 enrichment
CCUGUGCUACACAUCGUAUGUACCGAAUCGGGGUUUUUUGGGUUUUUUGGGUUUUUUGGGGAAAGUAUUAUGUUACGCCGUUCGGAUCUG | -1.13
CCAACUCCUAUAAUUCCCUAUCUUUUAGUUUUAGUUGCAGAAACAUUUUGUGGUCAUUAAGCAUUGGGUGGGUAAAUUCAACCACUGUAA | -0.47
CCUGUGCUACACAUCGUAUGUACCGAAUCGGGUUUUUUUGGGUUUUUGGGUUUUUUUGGGAAAGUAUUAUGUUACGCCGUUCGGAUCUGC | -1.47
UCCUGUGCUACACAUCGUAUGUACCGAAUCAAAUUUUUAAACCCCCCCAAAUUUUUAAAAAAGUAUUAUGUUACGCCGUUCGGAUCUGCA | -0.0174
CUCAAGUCCUGUGCUACACAUCGUAUGUACCGAAUCGGUUUUUGGUGGAAAGGAAAGUAUUAUGUUACGCCGUUCGGAUCUGCACUUCCA | -1.14
UCAAGUCCUGUGCUACACAUCGUAUGUACCGAAUCGGGAGGGAGGGAAAAAGGGAAAGUAUUAUGUUACGCCGUUCGGAUCUGCACUUCC | 1.7
UCAAGUCCUGUGCUACACAUCGUAUGUACCGAAUCGGGGCGGGGCGGGGCGGGGAAAGUAUUAUGUUACGCCGUUCGGAUCUGCACUUCC | 2.68
AGAAAGCCCAGGAGGAACCACCUGCCAAGCUGCUGGAUGACCUUUUCCGAAAGACCAAGGCAGCUCCCUGCAUCUAUUGGCUCCCACUGA | -0.645
UUCCAGGCUCAAGCACGGACAUCAGUGAGGACUGGGAGAAAGACUUUGACUUGGACAUGACUGAAGAGGAGGUGCAGAUGGCACUUUCCA | -0.252

Series 3 — technique: protein binding microarray; molecule type: double-stranded DNA, one strand shown; sample: in vitro; tested at: not given; baseline: not given; reading: higher = stronger binding
Target: Histone acetyltransferase KAT6A, winged helix 2, GST fusion (KAT6A, Homo sapiens, UniProt Q92794, residues 85-181)
Setting: 8-mer, flanks averaged, mean of 2 arrays, mostly near background
Construct (chain): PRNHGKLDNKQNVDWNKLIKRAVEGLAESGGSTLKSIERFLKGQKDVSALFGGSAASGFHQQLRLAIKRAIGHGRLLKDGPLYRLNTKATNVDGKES
Oligonucleotide | E-score
AGCAATCA | 0.0999
CAGGACTA | -0.114
AATGGTGT | -0.0926
GAGTATTA | -0.0937
GTGATCGA | 0.112
ATGGTTGG | -0.0167
AATCCCAT | -0.179
GTGCTGGA | 0.0175
AGGCGACA | 0.0442
GGGTCCAA | -0.0581
GCTTCCCC | -0.0994
GAATGGTA | -0.134
CGACCCGA | 0.154
ACAGGAAG | -0.0622
TGACTTAA | 0.0266
ATTTGCTA | 0.0389
AAACATAT | -0.000805
AAGTAGAC | 0.0559
ACTATATG | 0.0134
CTAGAAGA | -0.0344
CCCGTTAG | -0.0239
ACAACGAG | -0.0966
ATCGTTCG | -0.122
ACCGGAAG | 0.107
ACTACAGT | -0.0829

Series 4 — technique: protein-binding microarray; molecule type: double-stranded DNA, one strand shown; sample: in vitro; tested at: 2540 nM top; setting: 60-bp whole probe; with: salmon DNA 0.4 mg/ml; baseline: random background probes; reading: higher = stronger binding; all sequences stand within: GCCTAGCAC … GTCTTGATTCGCTTGACGCTGCTG
Target: Interferon regulatory factor 3, full length, phosphomimetic (IRF3, Homo sapiens, UniProt Q14653, residues 1-427, S386D/S396D/S398D/S402D/T404D/S405D)
Residues (chain): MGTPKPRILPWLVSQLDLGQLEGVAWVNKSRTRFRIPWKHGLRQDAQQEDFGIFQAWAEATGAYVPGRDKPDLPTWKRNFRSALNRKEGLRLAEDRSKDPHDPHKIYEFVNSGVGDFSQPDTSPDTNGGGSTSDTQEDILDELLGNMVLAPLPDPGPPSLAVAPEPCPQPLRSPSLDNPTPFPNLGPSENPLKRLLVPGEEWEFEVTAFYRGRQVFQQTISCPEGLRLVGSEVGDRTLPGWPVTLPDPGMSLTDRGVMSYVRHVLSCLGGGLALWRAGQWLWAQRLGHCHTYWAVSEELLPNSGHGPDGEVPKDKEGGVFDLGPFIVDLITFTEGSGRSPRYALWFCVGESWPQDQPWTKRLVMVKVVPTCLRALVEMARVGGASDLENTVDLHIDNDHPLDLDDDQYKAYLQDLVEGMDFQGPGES
Oligonucleotide | fitted relative affinity [z-score]
TTAGGACTGGACTTTCGTTTAGTGCTA | 0.287
GACGGTTCCGGTTTCGGGCCGTGCTAG | 5.5
GACGGTTTCGGGAATGGGGACGTGCTA | 3.75
TTAGATATCAGATTGGATTAGTGCTAG | 0.819
TCAACTTCTGTTTTTGCACTGTGCTAG | 0.55
GACGATTACAGTTTCGAGACGTGCTAG | 2.2
GATGAATAAAGCGTTGCTGCGTGCTAG | -0.519
TACGGACTGGGTTTCGGGACGTGCTAG | 1.24
TTAGGACTGCTACTGCTTAAGTGCTAG | -0.644
TTAGGTTTCCTAATGCTTTAGTGCTAG | 6.18
TTAGGTATCGACTATAGGTTAGTGCTA | 0.17
GAAGATCTCAGACTGGAGACGTGCTAG | -0.373
TCAAGCCTCAGGCCTCACACTGTGCTA | -1.11
TCCATTTTGGTTTTCATTATGTGCTAG | 3.76
TTAGGGTTCCTACTGCTTTAGTGCTAG | 0.98
TTAGAGTTCAGTTCCGATTAGTGCTAG | 1.81
TCAACCATCCTATGTAGAACTGTGCTA | 0.306

Excerpt of the above (series 3):
Oligonucleotide | E-score
GTGATCGA | 0.112
ATGGTTGG | -0.0167
AATCCCAT | -0.179
GTGCTGGA | 0.0175
AGGCGACA | 0.0442
GGGTCCAA | -0.0581
GCTTCCCC | -0.0994
GAATGGTA | -0.134
